Measurements from different studies.
Every numbered part comes from another study and shows a few of its results, in no order. Positions count from the first letter of the parent shown.

Study 1
Target: Centromere-binding protein 1, full length, His-tagged (CBF1, Saccharomyces cerevisiae, UniProt P17106, residues 1-351)
Chain of UniProt P17106 (whole entry, looked up): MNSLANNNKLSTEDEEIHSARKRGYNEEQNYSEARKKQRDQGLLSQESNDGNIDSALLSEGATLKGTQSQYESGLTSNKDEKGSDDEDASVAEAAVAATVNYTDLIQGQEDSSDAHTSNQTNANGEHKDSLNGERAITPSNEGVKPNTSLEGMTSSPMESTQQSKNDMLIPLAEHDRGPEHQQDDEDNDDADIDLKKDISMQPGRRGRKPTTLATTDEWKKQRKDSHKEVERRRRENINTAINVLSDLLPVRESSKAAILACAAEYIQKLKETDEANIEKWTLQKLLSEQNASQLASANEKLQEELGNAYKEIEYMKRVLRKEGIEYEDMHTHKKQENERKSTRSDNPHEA
Method: competition protein-binding microarray
Molecule type: double-stranded DNA, one strand shown
Medium: in vitro
Tested at: 2 µM
Setting: whole 60-bp probe, lowest competitor level
With: Pho4 competitor, 0.05 µM
Direction: higher = stronger binding
All sequences stand within: … GTCTTGATTCGCTTGACGCTGCTG
Oligonucleotide | fluorescence intensity [a.u.]
AAGACCGTATGGGAACACGTGGAGGATTAGGCTCGC | 905
CGGGGTTAAGTTTGACGTGTGGGTGGCTTGCAGCAG | 67.6
TTATCAAGAAACCGTCACAGAAGGAGCTCACTCTGG | 58.4
CGGGGTTAAGTTTGACCTGTGGGTGGCTTGCAGCAG | 61.1
CATACCCAACCTTGCTATGTGGGTGAAGATATTTGT | 83.6
CATACCCAACCTTGTGCCGTGGGTGAAGATATTTGT | 68.6
CAGCCTTTAATTTTTCACGTGTGAAATTCGATAATT | 1180
GCAATTGGATCTCACCACGTGGATTTAAAGATGGAC | 1020
GTCTTGTCTCATTCACACGTGTTTTTCCCCACTTCA | 731
CGGGGTTAAGTTTGGTCCGTGGGTGGCTTGCAGCAG | 73.1
AGTATCCTCGACCTACACGTCTTCACCATCAGCACC | 64.6
TGGTTGAGTTTTACCCACGATACCGATATTCTGAAC | 87.4
TTTCTTGGAATTTTTCACATGTTTGCAGTGAATAAA | 138
GTCTTGTCTCATTGATCTGTGGGTGTCCCCACTTCA | 75.5
TATCCCATCTAATATTCCGTGATGGTTTAATGGTCA | 87.7
TGCGCAACAACTTTTCACGTGGCTTTATGTCTAGAA | 835
CTTCTGTAAATTTGTATTGTGGGTGGACGCGCCCCG | 93.3
TGCTGGCGCTGCTACGCCGTGACGGCTCATTTCATC | 59.2
TTATTCAAATGAAATACAATTCTTTTCAAAGTTTGG | 77.9
ATTATCTAGGTGCTACACGTGTTGGGACAGACTTAT | 942

Study 2
Target: Histone acetyltransferase KAT6A, both winged helices, GST fusion (KAT6A, Homo sapiens, UniProt Q92794, residues 1-181)
Method: protein binding microarray
Molecule type: double-stranded DNA, one strand shown
Medium: in vitro
Tested at: not given
Setting: 8-mer, flanks averaged, mean of 2 arrays, mostly near background
Reference: not given
Direction: higher = stronger binding
Target sequence (chain): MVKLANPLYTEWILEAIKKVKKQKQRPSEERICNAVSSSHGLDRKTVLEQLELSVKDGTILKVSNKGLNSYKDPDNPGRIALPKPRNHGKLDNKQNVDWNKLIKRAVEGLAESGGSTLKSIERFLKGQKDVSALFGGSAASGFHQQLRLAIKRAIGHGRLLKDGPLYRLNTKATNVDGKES
Oligonucleotide | E-score
CACAAGGA | -0.0893
AACCCACC | -0.0337
AGAAAAGC | -0.0375
TGGGCAAA | -0.231
CCATAGCC | 0.0109
CAGAGGGC | -0.0549
GTGTAAAC | -0.0172
TAAGCTAA | -0.152
ATATCTTA | -0.106
ACATTACA | -0.0457
AAAACATC | -0.168
GACACCAA | -0.0143
TAGAATAA | -0.109
CCCGTTAC | 0.151
TCAAATAA | 0.0503
CCTGGGGA | -0.324
ATCCCGAT | -0.106

Study 3
Target: Prothrombin, mature alpha-thrombin (F2, Homo sapiens, UniProt P00734)
Method: aptamer microarray, sandwich
Molecule type: DNA with 2'F-ANA
Medium: in vitro
Tested at: 200 nM
Setting: whole 15-mer aptamer, many near background
With: Cy3 exosite-II aptamer, 400 nM
Direction: higher = stronger binding
Oligonucleotide: GGTTGGTGTGGTTGG
Modification | mean fluorescence intensity [a.u.]
2'F-ANA at 1 3 4 5 6 8 10 11 12 14 15 | 48.1
2'F-ANA at 1 2 3 7 9 10 13 15 | 83.4
2'F-ANA at 1 4 5 6 7 8 9 10 11 12 | 59.2
2'F-ANA at 1 3 4 5 9 10 13 14 | 45.8
2'F-ANA at 1 3 5 7 10 11 12 13 14 15 | 51.5
2'F-ANA at 4 5 6 7 10 11 12 15 | 49.7
2'F-ANA at 4 8 9 12 13 14 15 | 94.3
2'F-ANA at 1 5 7 8 10 11 12 13 14 15 | 46.3
2'F-ANA at 2 3 4 6 7 8 9 11 15 | 458
2'F-ANA at 1 6 8 9 | 198
2'F-ANA at 2 5 10 11 12 15 | 50.8
2'F-ANA at 2 4 5 6 13 | 57.2
2'F-ANA at 1 4 8 10 11 12 14 15 | 46.2
2'F-ANA at 1 2 7 9 10 12 14 | 45.7
2'F-ANA at 2 3 4 8 9 13 14 15 | 246
2'F-ANA at 1 2 5 6 9 12 13 14 | 58.3

Study 4
Target: RING finger protein unkempt homolog, zinc fingers 1-6, GST-SBP tag (UNK, Homo sapiens, UniProt Q9C0B0, residues 30-357)
Chain of UniProt Q9C0B0 (30-357, looked up): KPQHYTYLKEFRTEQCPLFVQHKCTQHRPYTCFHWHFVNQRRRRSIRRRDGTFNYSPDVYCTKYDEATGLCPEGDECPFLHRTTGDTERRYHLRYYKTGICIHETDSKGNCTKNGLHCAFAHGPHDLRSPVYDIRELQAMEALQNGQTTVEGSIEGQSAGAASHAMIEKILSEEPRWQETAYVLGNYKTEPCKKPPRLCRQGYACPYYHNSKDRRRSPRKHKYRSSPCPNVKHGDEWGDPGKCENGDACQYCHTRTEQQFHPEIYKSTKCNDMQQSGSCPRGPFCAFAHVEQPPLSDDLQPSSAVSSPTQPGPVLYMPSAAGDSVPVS
Method: RNA Bind-n-Seq
Molecule type: RNA
Medium: in vitro
Tested at: not given
Setting: RNA with constant flanks, human-mouse chimeric sites, ends assumed
Reference: input RNA pool
Direction: higher = stronger binding
All sequences stand within: GGGAGUUCUACAGUCCGACGAUC … CAACAGAGGAUUGAGCAUCA
Oligonucleotide | bound/input enrichment [ratio]
UUUGUAAUAUCUGUAAAAGGUUCCCCCCCCCUACUGUCAAAAAAUAUGCAUGUAUAGUAAUUAGGACUUCAUUCCUCCAUGUUUUCUUCCCUUAUCUUACUGUCAUUGUCCUAAAACCUU | 2.18
GUGUCCUGCUUUCAACUAUCACUGAGGCAUUUUUACUACUGUUCUGUGAGCAUCAGGACUGUAGCGCUGUGUCACCACAUGAGAGUUCAGAAGCAGCCUUUCUGUGGAGGGUGGGAAUGA | 0.117
UCAGUCUUUUUGUACAGCUUUGUAAAUUCUUAACAUUUUUAUAUUGCCAUGUUUAUUUUGUUUGGGUAAUUUGGUUCAUUAAGUACAUAGCUAAGGUACAUCUUUCAUUUUUCAGUAAUU | 1.35
UCUGAGGUACCACUGAAGAGACCUUAAAAGAAUCAUUUGAGGGCUCUGUUCGUGCAAAGGAUAGUUAUGAUCGGGAAACUGGUUCUUCCAAAGGGUUUGGUUUUGUAGACUUUAAUAGUG | 0.95
UCUUUAAAAAAAAAAUUACCUUUUCUGACAGUGCUUUCCCUCCCAUAGGUCCAGGUUCAAGCUCAAAGAGCAAAGGCUUUGCACGGAGCUCAAACAUCUGAUGAAGAAAGAUUUCUGAGA | 0.549
GCAAGAGAUGAUGAGGCGGCAGCUGUUGCCCUUUCCUCUCUCGUUCAUGCUUUGGAUGAGUUAAACAUGGUCGCCAUCGUCCGAUAUGCUUAUGACAAAAGAUCUAAUCCUCAAGUCGGU | 0.246
GGACAUCUGUCAAAUUGUUAUGUUCCUGUGAAACAAGUGAGCACUUUGAUACACUUCAUCUGCUUGUACAUCUGUAUGAUAGAGAAAUGUAAAUAUGUUAAUCCAAGAUGAAUUCAACUU | 0.201
AUGGAGAAGGAUUCUCUGCCCCGCUUUGUGCGCUCUGAAUUUUAUAAGGAGCUAAUCAAGUAGUAAUCUGGUCAGGCUUCCAAAAGUUGCCCUGUGAUAUUUCCUCCAUCCUUUGUAGCA | 0.27
GCGGCAGAAUCAUGGUGGACAUAAUGCAGCUCCCCAAAGCGCGCGUCAACGCCAGCAUGUUACCACAGUAUAUCGACAAGCCUGUCUGCUUCGUGGGGAAGCUGGAAAAGAUUCAUCCCA | 0.123
GUGUCCUGCUUUCAACUUAAAUCACUGAGGCAUCUCUACUGUUCUGUUAAAAUCAGGACUGUAGCGCUUGCCACCACCAUGAGAGUUCAGAAGCAGCCUUUCUGUGGAGGGUGGGAAUGA | 0.111
CUGAAAAACACAGAUAUCAAAGUUGUUGACUUUGGAAGUGCAACGUAUGAUGAUGAACAUCACAGUACUUUGGUGUCUACCCGGCACUACAGGGCUCCAGAGGUCAUUUUGGCUUUAGGU | 0.288

Study 5
Target: Interferon regulatory factor 5, full length, phosphomimetic (IRF5, Homo sapiens, UniProt Q13568-2, residues 1-514, S451D/S453D/S456D/S462D)
Method: protein-binding microarray
Molecule type: double-stranded DNA, one strand shown
Medium: in vitro
Tested at: 940 nM top
Setting: 60-bp whole probe
With: salmon DNA 0.4 mg/ml
Reference: random background probes
Direction: higher = stronger binding
All sequences stand within: GCCTAGCAC … GTCTTGATTCGCTTGACGCTGCTG
Oligonucleotide | fitted relative affinity [z-score]
TTAGATATCGGGAATCGATTAGTGCTA | 0.166
GACGGTTTAGGGTTTCGGGACGTGCTA | 2.28
TTAGGTTTCCGTCTCGGTTAGTGCTAG | 4.37
TTAGGACTGGGGACTGGGTGAGTGCTA | -0.263
GACGATATCTGGTATCGAGACGTGCTA | 1.92
GACGATATCGGGAATGGAGACGTGCTA | 0.106
TTTCATTGCTGCCCTCAGAAAGTGCTA | 4.65
GACGGTGTCCTTATCCTGACGTGCTAG | -0.0496
TTAGGTATCCTTCTCCTTAAGTGCTAG | 0.674
TTAGGCTTCCTTATCCTTTAGTGCTAG | 0.162
GACGGACCGGGACTGGGGACGTGCTAG | -0.47
TTAGGTATCGGTTTCGGGTAGTGCTAG | 10.7
TTAGATCTCAGTTTCGATTTGTGCTAG | 7.9
TTAGGTATCGGGAATCGGTTAGTGCTA | 3.99
TTAGGACTGTGGTTTCGGTTAGTGCTA | 6.64
TCACCTCTGTAAGTCAGACTGTGCTAG | -0.198
CACGATTTCGGGTTTCGAGACGTGCTA | 2.16
GCCGGACTGCTACTGCTGACGTGCTAG | -0.824
TCAGGTATAGCACTAAGACTGTGCTAG | -0.471
GACGGACTGGGGACTCGGGACGTGCTA | -0.274

Study 6
Target: PABPC1L2, full length, GST fusion (mouse, UniProt A0ABA7IW68)
Method: RNAcompete
Molecule type: RNA
Medium: in vitro
Tested at: 20 nM
Setting: 7-mer, probes averaged, single round
Reference: mean of 7-mers
Direction: higher = stronger binding
Target sequence (chain): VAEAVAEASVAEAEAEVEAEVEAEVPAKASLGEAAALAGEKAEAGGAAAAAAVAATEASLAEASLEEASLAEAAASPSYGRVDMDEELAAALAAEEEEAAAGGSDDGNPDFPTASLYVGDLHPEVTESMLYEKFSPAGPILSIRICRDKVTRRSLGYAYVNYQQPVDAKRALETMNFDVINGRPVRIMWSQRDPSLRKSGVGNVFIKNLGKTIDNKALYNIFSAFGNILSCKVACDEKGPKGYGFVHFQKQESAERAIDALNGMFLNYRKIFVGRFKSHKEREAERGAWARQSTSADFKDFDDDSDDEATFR
Oligonucleotide | 7-mer Z-score
AAUCCGU | -0.166
GUUGGCA | 0.1
AAUGUAG | 0.00436
ACAGCAU | -0.0826
UAGGCGU | -0.17
UGUCAGA | -0.171
AUGUUAC | -0.345
GUCAUAU | -0.287
GAGUCUC | -0.4
CACGGCC | -0.108
GAGGUUC | -0.193
ACUAUAU | -0.119
AGCAACA | 0.167
AGUCAUU | -0.229
CGGUGGU | -0.103
GGGAUCA | 0.234
UACCGGG | -0.0174

Study 7
Target: CCNA2, cyclin fold, Cln2 fusion (human)
Method: yeast growth competition, sequencing
Medium: yeast
Setting: strong parent motif
Reference: not given
Direction: higher = stronger binding
Parent: INSM1 docking peptide (human); PKAIRKLHFEDEV
Change | normalised enrichment score
PKAIRKLWFEDEV [H8W] | 4.99
PKRIRKLHFEDEV [A3R] | 1.64
PKAIRKLHFGDEV [E10G] | 5.55
PKAIRVLHFEDEV [K6V] | 3.56
PKAIRKLHFWDEV [E10W] | 4.32
PKALRKLHFEDEV [I4L] | 6.04
PKAIRKLHFESEV [D11S] | 4.84
PKAIRKLHFFDEV [E10F] | 5.17
PKTIRKLHFEDEV [A3T] | 2.67
PVAIRKLHFEDEV [K2V] | 3.83
PKAIRKLFFEDEV [H8F] | 4.83
PRAIRKLHFEDEV [K2R] | 5.34
PKEIRKLHFEDEV [A3E] | 0.575
PLAIRKLHFEDEV [K2L] | 4.26
PKAIRKLHFEDGV [E12G] | 4.94
PKAINKLHFEDEV [R5N] | 0.135
PQAIRKLHFEDEV [K2Q] | 4.31
PKAIRKLHFEDYV [E12Y] | 4.91
PKAIRKLHFPDEV [E10P] | 5.35
PIAIRKLHFEDEV [K2I] | 3.5
PKAIRKLHFECEV [D11C] | 5.22
PKAIRKLHTEDEV [F9T] | 0.00509
PKAIRKLHFEEEV [D11E] | 5.25

Repeated from above (study 7):
Change | normalised enrichment score
PQAIRKLHFEDEV [K2Q] | 4.31
PKAIRKLHFPDEV [E10P] | 5.35
PKAIRKLHTEDEV [F9T] | 0.00509
PKAIRKLHFEEEV [D11E] | 5.25
PIAIRKLHFEDEV [K2I] | 3.5
PKAIRKLHFEDGV [E12G] | 4.94
PRAIRKLHFEDEV [K2R] | 5.34
PKAIRKLFFEDEV [H8F] | 4.83
PKTIRKLHFEDEV [A3T] | 2.67
PKAIRKLHFWDEV [E10W] | 4.32
PKAIRKLHFEDYV [E12Y] | 4.91
PKAIRKLWFEDEV [H8W] | 4.99
PKEIRKLHFEDEV [A3E] | 0.575
PKAIRKLHFGDEV [E10G] | 5.55
PKRIRKLHFEDEV [A3R] | 1.64
PKAIRKLHFFDEV [E10F] | 5.17
